Assay results of several laboratories.
Compare with care: the assays were run in different laboratories. ± gives the spread as reported.

Structure (SMILES) = CC[C@H](C)[C@@H]1NC(=O)[C@@](C)(NC(=O)[C@H](CCCNC(=N)N)NC(=O)[C@H](CC(C)C)NC(=O)[C@@H](NC(=O)[C@H](CCC(N)=O)NC(=O)[C@H](CC(C)C)NC(C)=O)[C@@H](C)O)CCCC=CCCC[C@@](C)(C(=O)N[C@@H](CC(C)C)C(=O)N[C@@H](Cc2ccc3ccccc3c2)C(N)=O)NC(=O)[C@H](CCCNC(=N)N)NC(=O)[C@H](CCC(N)=O)NC1=O; system = BALB/c mouse, plasma; conditions = ip, 5 mg/kg; Cmax = 10500 ng/mL
Structure (SMILES) = Nc1nnc(-c2ccccc2O)cc1N1CCN(Cc2ccc(OCCOCCNc3cccc4c3C(=O)N(C3CCC(=O)NC3=O)C4=O)c(F)c2)CC1 (stereo not drawn); system = mouse, plasma; conditions = intraperitoneal, 50 mg/kg single dose, added: ritonavir 12.5 mg/kg; Cmax = 5.4 µM
Structure (SMILES) = CN1CCCC1CCNS(=O)(=O)c1ccc2c(c1)CN(CC1CCCCC1)CC2 (stereo not drawn); system = mouse C57BL/6J male, plasma; conditions = oral, 10 mg/kg, single dose in methylcellulose/Tween; Cmax = 135 ng/mL
Structure (SMILES) = O=C(NCCN1CCCC1)c1cc(-c2ccc(CN3CCOCC3)cc2)nc2ccc(F)cc12; system = NMRI mouse Plasmodium berghei-infected, blood; conditions = oral, 0.6 mg/kg, monotherapy; Cmax = 0.031 µM
Structure (SMILES) = C=CCn1c(=O)c2cnc(Nc3ccc(N4CCN(C)CC4)cc3)nc2n1-c1ccc2c(n1)[C@@](O)(CC)CC2; system = female NOD/SCID mouse OVCAR-3 xenograft, plasma; conditions = oral, 100 mg/kg once daily, :4; Cmax = 5090 ng/mL
Structure (SMILES) = COc1ccc(C[C@H](NC(=O)[C@H](C)NC(=O)CN2CCOCC2)C(=O)N[C@@H](Cc2ccccc2)C(=O)C2(C)CO2)cc1 (stereo in doubt); system = BALB/c mouse; conditions = intravenous, 20 mg/kg single; Cmax = 73.8 µM
Structure (SMILES) = CC(C)n1ncc2c(C(=O)NCC3(C)CNC3)cc(C3CC3)nc21; system = female BALB/c mouse, plasma; conditions = intraperitoneal, 50 mg/kg; Cmax = 7 µM
Structure (SMILES) = COc1cc([C@@H]2Oc3c(O)cc([C@H]4Oc5cc(O)cc(O)c5C(=O)[C@@H]4O)cc3[C@H]2CO)ccc1O; system = FVB wild-type mouse, plasma; conditions = oral gavage, 500 mg/kg silymarin; Cmax = not detected
Structure (SMILES) = CN1CCC[C@H](CN2c3ccccc3Sc3ccccc32)C1.Cl; system = fasted female ICR mouse, brain; conditions = oral, 16 mg/kg; Cmax = 4340 ng/g
Structure (SMILES) = CCOC(=O)C1=C(CN2CCC[C@@H]2C(=O)Nc2ccc(B(O)O)cc2)NC(c2nccs2)=N[C@H]1c1ccc(F)cc1Br; system = ICR mouse, plasma; conditions = intravenous, 2 mg/kg; Cmax = 1530 ± 241 ng/mL
Structure (SMILES) = Cl.Fc1ccc(Oc2ccc(Nc3ccc4ncc(OCC5CCNCC5)nc4c3)cc2)cc1; system = NOD-SCID mouse, plasma; conditions = intraperitoneal, 50 mg/kg; Cmax = 3.1 µM
Structure (SMILES) = O=C1CCC(N2Cc3cc(CO)c(F)cc3C2=O)C(=O)N1 (stereo not drawn); system = male CD-1 mouse, plasma; conditions = oral, 10 mg/kg of parent drug; Cmax = 33.8 ± 17.6 ng/mL
Structure (SMILES) = O=c1c2cc(Cl)c(CO)cc2[nH]c(=S)n1Cc1cccnc1; system = mouse; conditions = oral, 50 mg/kg; Cmax = 68 ng/mL
Structure (SMILES) = CC1(C)c2nc(-c3ccc(F)cc3)c(Nc3ccc(F)cc3)n2CCN1C(=O)CN; system = NMRI mouse Plasmodium berghei-infected, blood; conditions = oral, 1 mg/kg, monotherapy; Cmax = 0.122 µM
Structure (SMILES) = CC(=O)N(C)C1CCN(c2cc(F)cc(NC(=O)c3cc4c(F)ccc(C)c4[nH]3)c2)C1 (stereo not drawn); system = CD1 mouse; conditions = oral, 50 mg/kg; Cmax = 39.4 ng/mL
Structure (SMILES) = CNC(=O)c1cc(Oc2ccc(NC(=O)Nc3ccc(Cl)c(C(F)(F)F)c3)cc2)cc[n+]1[O-]; system = mouse, wild type, plasma; conditions = oral, 10 mg/kg, without rifampin, geometric mean; Cmax = 29 ng/mL
Structure (SMILES) = O=C(O)C[C@H](O)C[C@H](O)/C=C/c1c(C2CC2)nc2ccccc2c1-c1ccc(F)cc1; system = FVB wild-type mouse, plasma; conditions = oral, 5 mg/kg, added: rifampin 20 mg/kg oral; Cmax = 0.145 µM
Structure (SMILES) = Cc1[nH]c(C)c(S(=O)(=O)Nc2ccc(C(F)(F)F)c(Cl)c2)c1C(=O)N1CCC(F)(F)C1; system = mouse CD-1 male, plasma; conditions = intraperitoneal, 40 mg/kg; Cmax = 28 µM
Structure (SMILES) = Cc1ccc(CCC(=O)Nc2nnc(S(N)(=O)=O)s2)cc1; system = BALB/c mouse, male, plasma; conditions = oral, 20 mg/kg; Cmax = 16.9 µM
Structure (SMILES) = CN(C)C(=O)c1cc2cnc(Nc3ccc(-c4ccc5c(=O)cc(N6CCOCC6)oc5c4)cc3)nc2n1C1CCCC1.Cl; system = BALB/c mouse, plasma; conditions = oral, 20 mg/kg; Cmax = 3310 ± 1270 ng/mL
Structure (SMILES) = CNC(=O)c1cc(Oc2ccc(NC(=O)N(c3ccc(Cl)c(C(F)(F)F)c3)[C@@H]3O[C@H](C(=O)O)[C@@H](O)[C@H](O)[C@H]3O)cc2)ccn1; system = mouse, wild type, plasma; conditions = oral, 10 mg/kg, without rifampin, geometric mean; Cmax = 880 ng/mL
Structure (SMILES) = Cc1cc(N[C@H]2CCc3ccc(Cl)cc3C2)n2nc(C(C)(F)F)nc2n1; system = NSG mouse, whole blood; conditions = oral, 10 mg/kg; Cmax = 0.77 µM
Structure (SMILES) = CCO[C@H]1CCN(Cc2c(OC)cc(C)c3[nH]ccc23)[C@H](c2ccc(C(=O)O)cc2)C1; system = C57BL/6 mouse; conditions = 10 mg/kg, dose-normalised to 1 mg/kg; Cmax = 0.224 µM
Structure (SMILES) = Cc1cc(NC2Cc3cc(F)c(F)cc3C2)n2nc(C(C)(F)F)nc2n1; system = NSG mouse, whole blood; conditions = oral, 10 mg/kg; Cmax = 10.3 µM
Structure (SMILES) = Cc1ccc2c(c1)C(=O)[C@]1(O)CCN(c3ccc4nc(C)ccc4c3)C1=N2.Cl; system = mouse, brain; conditions = subcutaneous, 5 mg/kg; Cmax = 9.1 ± 1 µM
Structure (SMILES) = Cc1cc(NC2CCc3cc(Cl)ccc3C2)n2nc(C(C)(F)F)nc2n1 (stereo not drawn); system = NSG mouse, whole blood; conditions = oral, 10 mg/kg; Cmax = 1.19 µM
Structure (SMILES) = CN[C@H](CC(C)C)C(=O)N[C@H]1C(=O)N[C@@H](CC(N)=O)C(=O)N[C@H]2C(=O)N[C@H]3C(=O)N[C@H](C(=O)N[C@H](C(=O)O)c4cc(O)cc(O)c4-c4cc3ccc4O)[C@H](O)c3ccc(c(Cl)c3)Oc3cc2cc(c3O[C@@H]2O[C@H](CO)[C@@H](O)[C@H](O)[C@H]2O[C@H]2C[C@](C)(N)[C@H](O)[C@H](C)O2)Oc2ccc(cc2Cl)[C@H]1O; system = C57BL/6N mouse H1, faeces, wet weight; conditions = po, 0.5 mL, 20 mg/mL solution; Cmax = 1.4e+07 ng/g

Some of these lines once more:
Structure (SMILES) = CC(C)n1ncc2c(C(=O)NCC3(C)CNC3)cc(C3CC3)nc21; system = female BALB/c mouse, plasma; conditions = intraperitoneal, 50 mg/kg; Cmax = 7 µM
Structure (SMILES) = CC1(C)c2nc(-c3ccc(F)cc3)c(Nc3ccc(F)cc3)n2CCN1C(=O)CN; system = NMRI mouse Plasmodium berghei-infected, blood; conditions = oral, 1 mg/kg, monotherapy; Cmax = 0.122 µM
Structure (SMILES) = CC(=O)N(C)C1CCN(c2cc(F)cc(NC(=O)c3cc4c(F)ccc(C)c4[nH]3)c2)C1 (stereo not drawn); system = CD1 mouse; conditions = oral, 50 mg/kg; Cmax = 39.4 ng/mL
Structure (SMILES) = Cc1[nH]c(C)c(S(=O)(=O)Nc2ccc(C(F)(F)F)c(Cl)c2)c1C(=O)N1CCC(F)(F)C1; system = mouse CD-1 male, plasma; conditions = intraperitoneal, 40 mg/kg; Cmax = 28 µM
